Measurements of several laboratories.
A part holds a random share of what one study measured. Positions count from the first letter of the parent shown.

Set 1 — target: tungstate, free oxyanion; method: microfluidic competitive inhibition; sample: in vitro, cell-free expressed; concentration: not given; reading: lower = stronger binding
Notes: derived from inhibition constants, unchanged parent 2230 nM
Parent: PafA, mature enzyme, eGFP fusion (Elizabethkingia meningoseptica, UniProt Q9KJX5); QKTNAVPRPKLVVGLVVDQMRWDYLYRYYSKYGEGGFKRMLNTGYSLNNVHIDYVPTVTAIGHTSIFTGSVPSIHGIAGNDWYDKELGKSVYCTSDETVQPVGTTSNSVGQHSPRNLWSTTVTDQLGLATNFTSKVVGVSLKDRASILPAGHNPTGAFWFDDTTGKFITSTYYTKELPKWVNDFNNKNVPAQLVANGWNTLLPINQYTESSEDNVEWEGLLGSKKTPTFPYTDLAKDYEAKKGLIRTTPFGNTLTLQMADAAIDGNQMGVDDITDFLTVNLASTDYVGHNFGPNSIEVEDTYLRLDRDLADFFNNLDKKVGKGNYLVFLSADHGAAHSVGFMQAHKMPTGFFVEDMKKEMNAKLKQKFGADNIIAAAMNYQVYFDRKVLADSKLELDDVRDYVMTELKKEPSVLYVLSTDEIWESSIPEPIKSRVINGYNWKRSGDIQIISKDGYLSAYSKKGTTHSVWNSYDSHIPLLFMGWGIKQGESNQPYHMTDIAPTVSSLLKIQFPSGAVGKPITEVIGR
| Change | oxyanion analog dissociation constant [µM] |
| --- | --- |
| Q111G | 1.87 |
| P293G | 2.17 |
| P512V | 2.78 |
| L221G | 0.623 |
| D385V | 1.69 |
| P72V | 1.25 |
| V388G | 2.32 |
| G292V | 2.1 |

Set 2 — target: CCNA2, cyclin fold, Cln2 fusion (human); method: yeast growth competition, sequencing; sample: yeast; notes: strong parent motif; reference: not given; reading: higher = stronger binding
Parent: viral docking peptide; YKVKRRLVFGADD; partner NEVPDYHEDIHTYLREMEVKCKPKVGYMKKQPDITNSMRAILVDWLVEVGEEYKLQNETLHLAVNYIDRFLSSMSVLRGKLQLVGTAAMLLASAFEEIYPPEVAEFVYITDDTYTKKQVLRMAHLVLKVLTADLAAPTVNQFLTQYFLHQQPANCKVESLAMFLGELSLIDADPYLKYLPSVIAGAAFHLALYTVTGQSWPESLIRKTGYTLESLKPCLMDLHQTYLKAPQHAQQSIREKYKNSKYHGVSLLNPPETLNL
| Change | normalised enrichment score |
| --- | --- |
| YKVSRRLVFGADD [K4S] | 5.8 |
| YKVGRRLVFGADD [K4G] | 5.29 |
| YKVKRRLVFGAPD [D12P] | 6.13 |
| YKVKRRLVFIADD [G10I] | 5.68 |
| YKVKTRLVFGADD [R5T] | 4.22 |
| YKVKRRFVFGADD [L7F] | 1.45 |
| YKAKRRLVFGADD [V3A] | 6.47 |

Set 3 — read-out: binding; method: phage display NGS; form: peptide; concentration: concentration not given; reference: input library
Target: UDP-N-acetylglucosamine--peptide N-acetylglucosaminyltransferase 110 kDa subunit (OGT, Homo sapiens, UniProt O15294)
Sequence of UniProt O15294 (whole entry, looked up): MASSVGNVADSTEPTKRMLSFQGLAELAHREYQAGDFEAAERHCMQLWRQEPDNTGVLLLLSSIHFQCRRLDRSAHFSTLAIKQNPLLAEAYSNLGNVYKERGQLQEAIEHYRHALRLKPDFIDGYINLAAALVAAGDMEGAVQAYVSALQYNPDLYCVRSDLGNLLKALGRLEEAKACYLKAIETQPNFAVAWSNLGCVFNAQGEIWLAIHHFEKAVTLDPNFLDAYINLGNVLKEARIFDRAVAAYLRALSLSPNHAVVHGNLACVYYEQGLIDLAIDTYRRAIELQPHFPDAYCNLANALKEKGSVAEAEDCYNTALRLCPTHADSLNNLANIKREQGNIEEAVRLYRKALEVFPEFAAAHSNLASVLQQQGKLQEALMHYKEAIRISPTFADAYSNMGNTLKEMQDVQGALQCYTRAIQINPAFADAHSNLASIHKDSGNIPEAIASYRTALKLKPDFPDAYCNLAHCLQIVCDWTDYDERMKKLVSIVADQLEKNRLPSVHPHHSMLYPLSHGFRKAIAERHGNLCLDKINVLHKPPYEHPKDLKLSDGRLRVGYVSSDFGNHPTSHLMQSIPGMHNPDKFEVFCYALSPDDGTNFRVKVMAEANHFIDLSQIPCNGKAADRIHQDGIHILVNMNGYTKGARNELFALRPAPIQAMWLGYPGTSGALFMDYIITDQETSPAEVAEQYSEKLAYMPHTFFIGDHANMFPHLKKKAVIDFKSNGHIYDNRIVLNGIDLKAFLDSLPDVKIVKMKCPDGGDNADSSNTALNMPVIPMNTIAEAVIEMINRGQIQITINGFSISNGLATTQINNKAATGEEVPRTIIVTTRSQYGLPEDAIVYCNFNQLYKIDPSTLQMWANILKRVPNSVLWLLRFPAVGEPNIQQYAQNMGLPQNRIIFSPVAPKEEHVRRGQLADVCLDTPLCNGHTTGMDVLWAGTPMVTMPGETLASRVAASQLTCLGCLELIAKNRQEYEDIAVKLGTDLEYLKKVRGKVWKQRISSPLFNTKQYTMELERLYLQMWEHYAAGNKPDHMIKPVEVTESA
| Molecule | enrichment fold change |
| --- | --- |
| HEFHRHHPPIDDLMR | 3.57 |
| DSMLFTPLYQITVPH | 42.5 |
| VTNYHPSYHHLSHYA | 4.05 |
| NHTHMHRHPKDHQRE | 4.99 |
| FHSTMPVYQLKYVN | 3.1 |
| HEYPATHYHQQRKHY | 3.02 |
| GHDSYMPFYQISLFR | 8.37 |

Set 4 — method: protein-binding microarray; form: double-stranded DNA, one strand shown; sample: in vitro; concentration: not given; reading: higher = stronger binding
Target: Transcriptional repressor CTCF (CTCF, Homo sapiens, UniProt P49711, residues 1-727, full length assumed)
Sequence of UniProt P49711 (whole entry, looked up): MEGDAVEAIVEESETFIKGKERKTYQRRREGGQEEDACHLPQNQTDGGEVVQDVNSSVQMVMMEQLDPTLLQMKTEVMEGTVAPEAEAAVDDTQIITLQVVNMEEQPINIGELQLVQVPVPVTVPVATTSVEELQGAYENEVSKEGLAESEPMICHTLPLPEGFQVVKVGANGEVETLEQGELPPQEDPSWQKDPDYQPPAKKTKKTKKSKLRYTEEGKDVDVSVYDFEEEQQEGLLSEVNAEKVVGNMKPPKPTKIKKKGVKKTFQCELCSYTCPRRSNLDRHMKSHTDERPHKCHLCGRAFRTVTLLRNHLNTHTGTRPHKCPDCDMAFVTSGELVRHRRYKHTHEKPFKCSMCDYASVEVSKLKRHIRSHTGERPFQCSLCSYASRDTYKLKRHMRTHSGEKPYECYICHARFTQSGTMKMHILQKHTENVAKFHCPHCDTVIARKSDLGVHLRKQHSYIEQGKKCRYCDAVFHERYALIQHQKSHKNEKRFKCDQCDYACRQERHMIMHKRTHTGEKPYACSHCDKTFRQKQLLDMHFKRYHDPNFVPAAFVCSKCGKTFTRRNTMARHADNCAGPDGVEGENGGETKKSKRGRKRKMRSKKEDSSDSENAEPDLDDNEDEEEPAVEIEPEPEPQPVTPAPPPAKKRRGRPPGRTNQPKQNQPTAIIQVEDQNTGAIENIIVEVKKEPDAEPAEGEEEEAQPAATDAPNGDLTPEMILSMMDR
Notes: k-mer, scored over probes, only values ≥0.25
| Oligonucleotide | E-score |
| --- | --- |
| AATTTTAA | 0.283 |
| ATTATGGA | 0.267 |
| ATCCTATA | 0.304 |
| ACGATTAT | 0.317 |
| GCGCGCCA | 0.278 |
| CGAAATAC | 0.296 |
| ATAATGGC | 0.253 |
| TGTCATAA | 0.264 |

Excerpt of the above (set 2):
| Change | normalised enrichment score |
| --- | --- |
| YKVSRRLVFGADD [K4S] | 5.8 |
| YKVGRRLVFGADD [K4G] | 5.29 |
| YKVKRRFVFGADD [L7F] | 1.45 |
| YKVKRRLVFIADD [G10I] | 5.68 |
